Experimental data gathered from unrelated publications.
Lines come from different studies, so protocols differ. “And” joins repeats or separate records; there may be more than shown.
MAP2K6: Dual specificity mitogen-activated protein kinase kinase 6 (MAP2K6, Homo sapiens, UniProt P52564)
UniProt P52564, sequence (whole entry, unmodified, looked up): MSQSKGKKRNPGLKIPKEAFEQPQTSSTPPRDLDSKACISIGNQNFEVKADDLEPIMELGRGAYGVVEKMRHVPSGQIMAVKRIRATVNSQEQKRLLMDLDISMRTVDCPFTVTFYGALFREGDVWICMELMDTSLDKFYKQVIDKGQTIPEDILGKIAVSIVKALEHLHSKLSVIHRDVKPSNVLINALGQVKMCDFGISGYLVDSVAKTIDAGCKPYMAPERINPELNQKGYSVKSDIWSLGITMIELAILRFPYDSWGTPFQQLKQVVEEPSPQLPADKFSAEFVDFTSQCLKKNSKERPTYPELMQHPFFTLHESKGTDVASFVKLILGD

`NC(=O)C[C@H]1CCc2sc3ncnc(O[C@H]4CC[C@H](N5CCOCC5)CC4)c3c21` has an inhibition of 7% (MAP2K6; enzyme activity, inhibitor; 10 µM).
With `CCN1CCN(Cc2ccc(C(=O)Nc3ccc(C)c(NCc4cnc5[nH]ccc5c4OC)c3)cc2C(F)(F)F)CC1` the remaining binding was 100% (MAP2K6; binding, competition with immobilised ligand; 1 µM).
`Nc1ncc2c(n1)-c1c([nH]c3ccc(C4=CCOCC4)cc13)CCC2` gave a remaining binding of 100% (MAP2K6; binding, competition with immobilised ligand; 1 µM).
For `COc1cc(Nc2nccc(-c3cnn4nc(OC)ccc34)n2)cc(C(F)(F)F)c1`, the remaining binding was 100% (MAP2K6; binding, competition with immobilised ligand; 1 µM).
The remaining binding of `CNC1C[S+]2CC[S+]3CC[S+](C1)[Ru-4]321([N]=C=S)[n]2c3ccc(OC)cc3c3c4c(c5cc(F)c[n+]1c5c32)C(=O)NC4=O` (centres unmarked) is reported as 100% (MAP2K6; KinomeScan; 0.1 µM; baseline: untreated).
`CC(C)=CC1OC(C)(C)C2C=C3C(=O)C(Cl)=CC(O)C3C3C(O)C4OC4C(=O)C132` (centres unmarked) gave a remaining binding of 92% (MAP2K6; cell-free assay, competition with immobilised ligand; 10 µM).
The remaining activity of `COCC12C(=O)NC3C4(C(OC)CC1O)C1CC5(O)C(OC)C(O)C(OC(C)=O)(C1C5OC(=O)c1ccccc1)C3(O)C(OC)C24` (centres unmarked) is reported as 139% and 102% (Dual specificity mitogen-activated protein kinase kinase 6 (MAP2K6, Homo sapiens, UniProt P52564, S207D/T211D); kinase activity, inhibitor, ProQinase kinase profiling; 25 µM; baseline: control).
`COc1c(OCCCN2CCOCC2)ccc2c1N=C(NC(=O)c1cnc(N)nc1)N1CCN=C21` gave a remaining activity of 110% (MAP2K6; kinase activity, inhibitor; 1 µM; baseline: untreated control).
For `C=CC(=O)N1CCc2ccc(-n3c(=O)ccc4cnc5ccc(-c6cnn(C)c6)cc5c43)cc21`, the remaining binding was 92% (MAP2K6; KINOMEscan; 1 µM; baseline: DMSO control).
With `COc1ccc(NC(=O)Nc2ccc3c(c2)C(=O)N(C(C)CO)CC(C)C(CN(C)Cc2ccc4c(c2)OCO4)O3)cc1` (centres unmarked) the remaining activity was 98% (MAP2K6; kinase activity; 0.03 µM; baseline: control).
For `O=C(Cc1ccc(OCc2ccccc2)cc1)NC1(C(=O)O)CCN(C(=O)c2ccc(-c3cccc(Cl)c3)cc2)CC1`, “activity vs control” read 110% (MAP2K6; enzyme activity, inhibitor; 10 µM).

Excerpt of the above:
With `COc1ccc(NC(=O)Nc2ccc3c(c2)C(=O)N(C(C)CO)CC(C)C(CN(C)Cc2ccc4c(c2)OCO4)O3)cc1` (centres unmarked) the remaining activity was 98% (MAP2K6; kinase activity; 0.03 µM; baseline: control).
